Measurements from different studies.
Compare with care: the assays were run in different laboratories. ± marks the error that the study gave.

Substance | tested on | test | test system | conditions | how to read | quantity | result
CC(C)[C@H](NC(=O)[C@@H]1CCCN1C(=O)[C@H](CCCNC(=N)N)NC(=O)[C@H](CS)NC(=O)[C@H](Cc1c[nH]c2ccccc12)NC(=O)[C@H](CCCNC(=N)N)NC(=O)[C@@H](Cc1ccccc1)NC(=O)[C@H](Cc1c[nH]cn1)NC(=O)[C@H](CCC(=O)O)NC(=O)[C@H](CS)NC(=O)[C@H](CS)NC(=O)[C@H](CCCNC(=N)N)NC(=O)[C@@H]1CC(=O)N[C@@H](CCCNC(=N)N)C(=O)N[C@@H](C)C(=O)N[C@@H](CC(=O)O)C(=O)N[C@H](Cc2ccc(O)cc2)C(=O)N1)C(N)=O [technetium-99m labelled] |  |  | C57 mouse, intestine | intravenous, 0.037 MBq, 0.5 h |  | tissue uptake | 2.53 ± 0.18 %ID
CSCC[C@H](NC(=O)[C@H](CC(C)C)NC(=O)[C@H](Cc1c[nH]cn1)NC(=O)CNC(=O)[C@@H](NC(=O)[C@H](C)NC(=O)[C@H](Cc1c[nH]c2ccccc12)NC(=O)[C@H](CCC(N)=O)NC(=O)CCCCCNC(=O)[C@H](CCC(=O)NCCCC[C@@H]1NC(=O)[C@@H](Cc2ccc(O)cc2)NC(=O)[C@H](CC(=O)O)NC(=O)CNC(=O)[C@H](CCCNC(=N)N)NC1=O)NC(=O)CN1CCN(CC(=O)O)CCN(CC(=O)O)CC1)C(C)C)C(N)=O [copper-64 labelled] |  |  | ICR SCID mouse, female, liver | intravenous, 750 kBq, 4 h |  | tissue uptake | 1.1 ± 0.11 %ID/g
Nc1ccccc1C#Cc1cc(F)cc(F)c1 | HEK293 NF-κB luciferase reporter | reporter gene, measured: NF-κB |  | 50 µM, 6 h, with: TNFα |  | inhibition | 31.5 ± 4.3%
c1cncc(CN2CCC(n3ncc4c(N5CCOCC5)nc(-c5ccc6[nH]ccc6c5)nc43)CC2)c1 | NIH3T3 in PANC/NIH microtissues | fibroblast toxicity |  | chronic toxicity, unit not given | relative to: AC50 ATP over AC50 NanoLUC, day 7 | therapeutic window | 1.24
COc1ccc(/C=C2/S/C(=N/N=C(\C)c3ccccn3)NC2=O)cc1 | Vero | cell growth or viability, SRB |  | 100 µg/mL, 48 h |  | inhibition | 61.2%
LRRFSTMPFMFSNINNVSNF | HUVEC | cell proliferation, WST-1 | peptide | 100 µM, 72 h | relative to: vehicle | inhibition | 50.5 ± 0.66%
COc1cccc(-c2cc3ccccc3[nH]2)c1 | HEK293 NF-κB luciferase reporter | reporter gene, measured: NF-κB |  | 50 µM, 6 h, with: TNFα |  | inhibition | 85.5 ± 3%
CCN1C(=O)/C(=C\c2ccc(F)cc2)S/C1=N/N=C(\C)c1ccccn1 | Vero | cell growth or viability, SRB |  | 100 µg/mL, 48 h |  | inhibition | 64.8%
LRRFSTMPFMFGNINNVGNF | HUVEC | cell proliferation, WST-1 | peptide | 100 µM, 72 h | relative to: vehicle | inhibition | 25.7 ± 0.78%
ON=Cc1c(-c2ccccc2)[nH]c2ccccc12 | HEK293 NF-κB luciferase reporter | reporter gene, measured: NF-κB |  | 50 µM, 6 h, with: TNFα |  | inhibition | 73.6 ± 2.6%
Cc1ccc(NC2=CC(=O)c3sc(C)nc3C2=O)cc1 | HeLa expressing ODD-Luc | ODD-Luc degradation, inhibitor, cycloheximide chase luciferase |  |  |  | IC50 | 8 ± 2 µM
LRRFSTMPFMFININNVINF | HUVEC | cell migration, real-time cell analysis | peptide | 50 µM, with: full medium chemoattractant | relative to: vehicle | inhibition | 92.9 ± 1.78%
N#Cc1c(-c2ccccc2)[nH]c2ccccc12 | HEK293 NF-κB luciferase reporter | reporter gene, measured: NF-κB |  | 50 µM, 6 h, with: TNFα |  | inhibition | 70.2 ± 3.8%
CCC(C(=O)O)n1c(=NC(=O)c2cccc(C(F)(F)F)c2)sc2cc(F)c(F)cc21 (stereo not drawn) | NCI-H226 | cell invasion | chick chorioallantoic membrane | 50 µM, 48 h | relative to: control | inhibition | 80%
COc1ccc(-c2cc3ccccc3[nH]2)cc1 | HEK293 NF-κB luciferase reporter | reporter gene, measured: NF-κB |  | 50 µM, 6 h, with: TNFα |  | inhibition | 81.3 ± 1.9%
CC(=O)c1s/c(=N/N=C(\C)c2ccccn2)[nH]c1C | Vero | cell growth or viability, SRB |  | 100 µg/mL, 48 h |  | inhibition | 63.6%
LRRFSTMPFMFCNINNVCNF | HUVEC | cell adhesion, real-time cell analysis | peptide | 100 µM, 3 h | relative to: vehicle | inhibition | 96.25 ± 0.34%

Substance | tested on | test | test system | conditions | how to read | quantity | result
CON=Cc1c(-c2ccccc2)[nH]c2ccccc12 | HEK293 NF-κB luciferase reporter | reporter gene, measured: NF-κB |  | 50 µM, 6 h, with: TNFα |  | inhibition | 48.8 ± 8%
CCN1C(=O)/C(=C\c2ccc(OC)cc2)S/C1=N/N=C(\C)c1ccccn1 | Vero | cell growth or viability, SRB |  | 100 µg/mL, 48 h |  | inhibition | 57%
heparin | bovine aortic endothelial cells | cell adhesion to collagen NC1 domain |  | 0.3 µg/mL, 60 min, 37 °C |  | inhibition | ~50%
LRRFSTMPFMFANINNVANF | HUVEC | cell migration, real-time cell analysis | peptide | 50 µM, with: full medium chemoattractant | relative to: vehicle | inhibition | 99.59 ± 0.13%
CCn1c(C)c(/N=N/c2ccc(C)cc2)s/c1=N/N=C(\C)c1ccccn1 | Vero | cell growth or viability, SRB |  | 100 µg/mL, 48 h |  | inhibition | 66.7%
LRRFSTMPFAFININNVINF | HUVEC | cell migration, real-time cell analysis | peptide | 50 µM, with: full medium chemoattractant | relative to: vehicle | inhibition | 69.33 ± 0.14%
CCN1C(=O)/C(=C\c2ccc(OC)c(OC)c2)S/C1=N/N=C(\C)c1ccccn1 | Vero | cell growth or viability, SRB |  | 100 µg/mL, 48 h |  | inhibition | 52.7%
N#Cc1cnc2cnc(NCc3cccnc3)cc2c1Nc1ccc(F)c(Cl)c1 | HeLa expressing ODD-Luc | ODD-Luc degradation, inhibitor, cycloheximide chase luciferase |  |  |  | IC50 | ~10 µM
FC(F)(F)Oc1ccc(-c2cc3ccccc3[nH]2)cc1 | HEK293 NF-κB luciferase reporter | reporter gene, measured: NF-κB |  | 50 µM, 6 h, with: TNFα |  | inhibition | 79.7 ± 8.8%
C#C[C@]1(COP(=O)(O)OP(=O)(O)OP(=O)(O)O)O[C@@H](n2cnc3c(N)nc(F)nc32)C[C@@H]1O | human PBMC tumour model |  | host not given, plasma | oral, 15 mg, single dose, fasted |  | Tmax | 6 h
CC(C)[C@H](NC(=O)[C@@H]1CCCN1C(=O)[C@H](CCCNC(=N)N)NC(=O)[C@H](CS)NC(=O)[C@H](Cc1c[nH]c2ccccc12)NC(=O)[C@H](CCCNC(=N)N)NC(=O)[C@@H](Cc1ccccc1)NC(=O)[C@H](Cc1c[nH]cn1)NC(=O)[C@H](CCC(=O)O)NC(=O)[C@H](CS)NC(=O)[C@H](CS)NC(=O)[C@H](CCCCN)NC(=O)[C@@H]1CC(=O)N[C@@H](CCCNC(=N)N)C(=O)N[C@@H](C)C(=O)N[C@@H](CC(=O)O)C(=O)N[C@H](Cc2ccc(O)cc2)C(=O)N1)C(N)=O [technetium-99m labelled] |  |  | C57 mice, bone | intravenous, 0.037 MBq, 0.5 h |  | tissue uptake | 1.75 ± 0.29 %ID/g
CC(C)=CCc1c(-c2ccccc2)n(CC=C(C)C)c2ccccc12 | HEK293 NF-κB luciferase reporter | reporter gene, measured: NF-κB |  | 50 µM, 6 h, with: TNFα |  | inhibition | 60.9 ± 1.1%
COc1ccc(/C=C2/S/C(=N/N=C(\C)c3ccccn3)NC2=O)cc1OC | Vero | cell growth or viability, SRB |  | 100 µg/mL, 48 h |  | inhibition | 55.8%
[O-][n+]1nc(NCCCNc2n[n+]([O-])c3ccccc3[n+]2[O-])nc2ccccc21 | HUVEC and fibroblast co-culture | tube formation |  | 20 µM, 11 d |  | inhibition | 80 to 90%
CCn1c(C)c(/N=N/c2ccc(Cl)cc2)s/c1=N/N=C(\C)c1ccccn1 | Vero | cell growth or viability, SRB |  | 100 µg/mL, 48 h |  | inhibition | 62.4%
NCCCCCCCCNc1n[n+]([O-])c2ccccc2[n+]1[O-] | HUVEC and fibroblast co-culture | tube formation |  | 20 µM, 11 d |  | inhibition | 80 to 90%

Repeated from above:
Substance | tested on | test | test system | conditions | how to read | quantity | result
c1cncc(CN2CCC(n3ncc4c(N5CCOCC5)nc(-c5ccc6[nH]ccc6c5)nc43)CC2)c1 | NIH3T3 in PANC/NIH microtissues | fibroblast toxicity |  | chronic toxicity, unit not given | relative to: AC50 ATP over AC50 NanoLUC, day 7 | therapeutic window | 1.24
LRRFSTMPFMFGNINNVGNF | HUVEC | cell proliferation, WST-1 | peptide | 100 µM, 72 h | relative to: vehicle | inhibition | 25.7 ± 0.78%
LRRFSTMPFMFSNINNVSNF | HUVEC | cell proliferation, WST-1 | peptide | 100 µM, 72 h | relative to: vehicle | inhibition | 50.5 ± 0.66%
